# Assay results from different studies.
# Every numbered part comes from another study and shows a few of its results, in no order. Positions count from the first letter of the parent shown.
# Sequence of UniProt Q5VT25 (whole entry, looked up): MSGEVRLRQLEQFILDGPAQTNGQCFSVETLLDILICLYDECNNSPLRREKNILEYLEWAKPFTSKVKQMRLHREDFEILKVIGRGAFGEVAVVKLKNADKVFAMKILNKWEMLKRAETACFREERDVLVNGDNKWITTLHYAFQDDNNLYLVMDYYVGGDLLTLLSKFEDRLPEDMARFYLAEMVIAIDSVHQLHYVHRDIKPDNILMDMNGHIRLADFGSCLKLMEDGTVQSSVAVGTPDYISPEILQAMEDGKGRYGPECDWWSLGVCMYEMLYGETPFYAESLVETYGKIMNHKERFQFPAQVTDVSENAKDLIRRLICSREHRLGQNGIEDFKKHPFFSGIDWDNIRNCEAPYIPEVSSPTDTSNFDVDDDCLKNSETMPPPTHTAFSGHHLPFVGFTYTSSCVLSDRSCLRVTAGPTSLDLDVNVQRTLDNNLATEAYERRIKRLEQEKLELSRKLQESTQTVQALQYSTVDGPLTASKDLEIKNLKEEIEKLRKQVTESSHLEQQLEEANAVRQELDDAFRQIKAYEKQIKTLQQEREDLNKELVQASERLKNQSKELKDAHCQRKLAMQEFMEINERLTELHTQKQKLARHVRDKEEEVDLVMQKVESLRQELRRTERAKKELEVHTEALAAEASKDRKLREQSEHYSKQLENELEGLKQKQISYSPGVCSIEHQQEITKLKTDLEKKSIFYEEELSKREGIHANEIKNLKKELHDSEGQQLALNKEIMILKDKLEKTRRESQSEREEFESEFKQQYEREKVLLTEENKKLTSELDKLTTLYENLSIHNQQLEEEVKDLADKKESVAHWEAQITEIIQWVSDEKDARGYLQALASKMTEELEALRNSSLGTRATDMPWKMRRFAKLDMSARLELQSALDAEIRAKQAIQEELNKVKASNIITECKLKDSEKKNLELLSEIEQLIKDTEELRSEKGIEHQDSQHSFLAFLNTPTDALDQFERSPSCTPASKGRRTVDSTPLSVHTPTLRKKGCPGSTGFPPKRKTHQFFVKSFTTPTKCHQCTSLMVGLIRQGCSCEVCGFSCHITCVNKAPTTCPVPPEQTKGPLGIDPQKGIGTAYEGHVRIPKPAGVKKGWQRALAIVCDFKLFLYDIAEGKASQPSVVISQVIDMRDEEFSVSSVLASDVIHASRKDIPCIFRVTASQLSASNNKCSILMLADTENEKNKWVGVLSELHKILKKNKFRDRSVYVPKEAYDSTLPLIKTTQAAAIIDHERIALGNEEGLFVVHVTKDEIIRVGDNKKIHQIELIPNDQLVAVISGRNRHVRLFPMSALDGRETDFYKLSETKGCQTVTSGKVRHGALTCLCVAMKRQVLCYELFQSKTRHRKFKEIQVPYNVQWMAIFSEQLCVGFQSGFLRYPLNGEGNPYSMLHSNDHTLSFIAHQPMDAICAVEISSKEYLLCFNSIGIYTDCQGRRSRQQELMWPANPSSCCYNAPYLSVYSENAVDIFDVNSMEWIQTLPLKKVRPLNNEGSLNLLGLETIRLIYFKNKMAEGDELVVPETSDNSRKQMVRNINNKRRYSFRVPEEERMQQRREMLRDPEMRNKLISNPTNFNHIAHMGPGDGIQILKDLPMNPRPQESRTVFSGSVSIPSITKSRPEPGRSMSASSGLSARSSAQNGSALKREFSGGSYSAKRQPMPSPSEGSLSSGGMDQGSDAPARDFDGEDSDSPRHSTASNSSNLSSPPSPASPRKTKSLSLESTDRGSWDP
# Sequence of UniProt Q5S007 (whole entry, unmodified, looked up): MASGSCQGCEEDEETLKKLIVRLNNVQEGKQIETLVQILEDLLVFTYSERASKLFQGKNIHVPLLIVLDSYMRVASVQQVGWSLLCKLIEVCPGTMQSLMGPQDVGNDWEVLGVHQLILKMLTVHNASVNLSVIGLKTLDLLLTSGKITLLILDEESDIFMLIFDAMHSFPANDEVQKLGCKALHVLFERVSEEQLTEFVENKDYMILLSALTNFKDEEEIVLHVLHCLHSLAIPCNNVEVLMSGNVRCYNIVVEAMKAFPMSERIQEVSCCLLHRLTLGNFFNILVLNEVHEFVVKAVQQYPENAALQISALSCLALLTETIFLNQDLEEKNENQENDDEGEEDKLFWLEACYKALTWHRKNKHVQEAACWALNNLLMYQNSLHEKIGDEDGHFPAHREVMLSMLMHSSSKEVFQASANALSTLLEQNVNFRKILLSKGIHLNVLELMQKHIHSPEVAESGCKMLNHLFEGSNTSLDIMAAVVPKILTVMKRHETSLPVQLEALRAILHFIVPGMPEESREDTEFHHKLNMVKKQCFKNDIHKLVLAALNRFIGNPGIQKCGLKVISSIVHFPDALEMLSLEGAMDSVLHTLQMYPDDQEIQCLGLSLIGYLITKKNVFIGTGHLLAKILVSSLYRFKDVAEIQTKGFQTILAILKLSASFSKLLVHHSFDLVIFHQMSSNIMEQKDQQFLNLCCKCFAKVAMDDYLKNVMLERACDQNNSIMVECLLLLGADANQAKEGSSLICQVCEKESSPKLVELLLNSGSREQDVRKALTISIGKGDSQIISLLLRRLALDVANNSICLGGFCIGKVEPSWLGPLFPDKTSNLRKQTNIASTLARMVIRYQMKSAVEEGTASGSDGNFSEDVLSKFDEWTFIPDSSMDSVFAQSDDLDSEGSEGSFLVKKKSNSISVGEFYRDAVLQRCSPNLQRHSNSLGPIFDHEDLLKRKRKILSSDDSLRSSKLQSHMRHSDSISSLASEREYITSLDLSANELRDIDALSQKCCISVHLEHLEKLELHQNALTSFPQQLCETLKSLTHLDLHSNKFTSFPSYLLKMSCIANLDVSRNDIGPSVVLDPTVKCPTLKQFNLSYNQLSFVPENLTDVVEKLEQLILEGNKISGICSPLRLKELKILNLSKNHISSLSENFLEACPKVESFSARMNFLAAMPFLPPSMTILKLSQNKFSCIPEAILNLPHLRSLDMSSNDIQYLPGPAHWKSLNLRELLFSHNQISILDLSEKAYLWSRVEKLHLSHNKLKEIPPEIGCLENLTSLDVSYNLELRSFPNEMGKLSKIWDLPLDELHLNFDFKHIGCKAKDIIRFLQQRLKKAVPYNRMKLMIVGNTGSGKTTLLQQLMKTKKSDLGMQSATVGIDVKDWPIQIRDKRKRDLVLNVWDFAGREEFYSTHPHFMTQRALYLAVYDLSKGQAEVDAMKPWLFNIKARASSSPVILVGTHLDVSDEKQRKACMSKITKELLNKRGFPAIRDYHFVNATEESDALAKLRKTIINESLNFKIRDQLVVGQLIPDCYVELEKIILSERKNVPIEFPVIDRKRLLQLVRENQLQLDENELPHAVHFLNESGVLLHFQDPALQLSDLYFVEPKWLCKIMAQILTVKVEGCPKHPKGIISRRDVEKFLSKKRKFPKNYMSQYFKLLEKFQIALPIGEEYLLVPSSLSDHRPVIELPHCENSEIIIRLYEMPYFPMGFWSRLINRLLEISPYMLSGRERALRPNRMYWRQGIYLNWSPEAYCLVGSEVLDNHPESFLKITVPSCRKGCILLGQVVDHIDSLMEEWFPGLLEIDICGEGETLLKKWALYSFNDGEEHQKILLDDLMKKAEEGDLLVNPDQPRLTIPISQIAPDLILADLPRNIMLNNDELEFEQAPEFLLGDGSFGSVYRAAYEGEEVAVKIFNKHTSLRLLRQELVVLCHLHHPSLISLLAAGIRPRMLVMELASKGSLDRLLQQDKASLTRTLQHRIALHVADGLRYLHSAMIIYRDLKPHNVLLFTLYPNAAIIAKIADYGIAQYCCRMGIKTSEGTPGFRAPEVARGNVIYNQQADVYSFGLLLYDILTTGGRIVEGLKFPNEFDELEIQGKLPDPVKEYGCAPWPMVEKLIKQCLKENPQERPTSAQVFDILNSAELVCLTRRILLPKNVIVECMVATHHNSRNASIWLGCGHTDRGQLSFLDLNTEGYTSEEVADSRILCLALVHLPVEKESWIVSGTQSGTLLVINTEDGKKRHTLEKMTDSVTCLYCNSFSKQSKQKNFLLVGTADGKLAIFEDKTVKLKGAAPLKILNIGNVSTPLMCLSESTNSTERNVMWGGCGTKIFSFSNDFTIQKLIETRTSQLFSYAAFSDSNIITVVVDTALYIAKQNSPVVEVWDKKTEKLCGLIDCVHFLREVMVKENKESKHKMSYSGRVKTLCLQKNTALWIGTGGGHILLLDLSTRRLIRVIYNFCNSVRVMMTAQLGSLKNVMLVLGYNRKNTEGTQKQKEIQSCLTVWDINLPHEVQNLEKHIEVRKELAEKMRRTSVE

# Study 1 — read-out: cell-free assay; technique: competition with immobilised ligand; tested at: 0.1 µM
# SMILES: O=C(NCCCC1CCCCC1)c1ccc(CNC(=O)c2cnn(-c3ccccc3)c2C(F)(F)F)cc1
target,remaining binding [%]
"PIK3CA (Homo sapiens, UniProt P42336, E545A)",100
"PAK2 (Homo sapiens, UniProt Q13177)",100
"FLT1 (Homo sapiens, UniProt P17948)",100
"MAP4K3 (Homo sapiens, UniProt Q8IVH8)",78
"LRRK2 (Homo sapiens, UniProt Q5S007, G2019S)",100
"RET (Homo sapiens, UniProt P07949, V804L)",100
"CHUK (Homo sapiens, UniProt O15111)",100
"MYLK4 (Homo sapiens, UniProt Q86YV6)",100
"EPHB1 (Homo sapiens, UniProt P54762)",89
"CDC42BPA (Homo sapiens, UniProt Q5VT25)",100

# Study 2 — target: CEBPA, bZIP domain (human); technique: DHFR protein complementation; sample: yeast; baseline: wild-type JUN-FOS pair; direction: higher = stronger binding
# Notes: single substitutions, most at no-binding floor
# Starting sequence: JUN, bZIP domain (human); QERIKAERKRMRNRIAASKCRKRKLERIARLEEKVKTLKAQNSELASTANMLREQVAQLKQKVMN; partner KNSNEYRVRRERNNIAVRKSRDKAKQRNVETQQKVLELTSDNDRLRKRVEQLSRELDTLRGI
Substitution,binding fitness
A29C,-1.47 natural log
S43F,-1.38 natural log
S47F,-1.4 natural log
A29N,-1.38 natural log
K39W,-1.53 natural log
A29F,-1.34 natural log
R53L,-1.52 natural log
K36P,-1.53 natural log

# Study 3 — read-out: enzyme activity; mode: inhibitor; tested at: 0.5 µM; baseline: control
# Target: Receptor-interacting serine/threonine-protein kinase 2 (RIPK2, Homo sapiens, UniProt O43353)
# Sequence of UniProt O43353 (whole entry, looked up): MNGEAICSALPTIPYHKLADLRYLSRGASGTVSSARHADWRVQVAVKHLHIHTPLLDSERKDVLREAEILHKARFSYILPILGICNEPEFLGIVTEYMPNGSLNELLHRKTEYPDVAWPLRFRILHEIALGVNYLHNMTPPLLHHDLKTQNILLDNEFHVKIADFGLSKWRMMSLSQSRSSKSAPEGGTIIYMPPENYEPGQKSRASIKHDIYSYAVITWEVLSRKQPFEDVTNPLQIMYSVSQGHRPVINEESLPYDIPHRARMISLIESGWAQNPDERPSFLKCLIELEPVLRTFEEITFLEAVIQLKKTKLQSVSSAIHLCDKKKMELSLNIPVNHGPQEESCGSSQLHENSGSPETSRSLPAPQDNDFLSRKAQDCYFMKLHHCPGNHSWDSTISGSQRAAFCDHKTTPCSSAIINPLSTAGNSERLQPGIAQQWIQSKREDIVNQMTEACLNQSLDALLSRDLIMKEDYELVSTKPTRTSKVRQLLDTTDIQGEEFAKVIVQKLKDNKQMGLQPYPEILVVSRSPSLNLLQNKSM
Structure (SMILES),remaining activity [%]
CN(C)c1ccc(C=C2C(=O)Nc3ccccc32)cc1,87.8
O=C(Nc1cccc(Nc2cc(Nc3cccc(C(F)(F)F)c3)ncn2)c1)C1CC1,80.8
O=C(CCCc1ccc(-c2ccccc2F)cc1)Nc1ccc(O)cc1,84.5
Nc1[nH]nc2nc3ccccc3nc12,81.1
OCC(O)CCON=C1C(c2c(O)[nH]c3ccccc23)=Nc2ccccc21 (stereo not drawn),62.8
NCCNc1ncc(C(N)=O)c(Nc2cccc(C(F)(F)F)c2)n1,93.2
Cc1cccc(-c2[nH]c(C(C)(C)C)nc2-c2ccc3c(c2)OCO3)n1,79
O=S(=O)(c1cccc2cnccc12)N1CCCNCC1,86.4
Nc1ccc2ncnc(NCCc3ccc(Oc4ccccc4)cc3)c2c1,94.6
O=C(O)c1ccc2c3c1cccc3c(=O)n1c3ccccc3nc21,78.4
O=C1NC(=O)C(c2cn(CCCn3ccnc3)c3ccccc23)=C1Nc1ccccc1,84.3
COc1ccc(OC)c2c(=S)c3ccccc3[nH]c12,108
CCOC(=O)c1c(C)[nH]c(/C=C2\C(=O)Nc3ccccc32)c1C,88.3

# Study 4 — technique: RNAcompete; form: RNA; sample: in vitro; tested at: 20 nM; notes: 7-mer, probes averaged, single round; baseline: mean of 7-mers; direction: higher = stronger binding
# Target: PABPC1L2, full length, GST fusion (mouse, UniProt A0ABA7IW68)
# Residues (chain): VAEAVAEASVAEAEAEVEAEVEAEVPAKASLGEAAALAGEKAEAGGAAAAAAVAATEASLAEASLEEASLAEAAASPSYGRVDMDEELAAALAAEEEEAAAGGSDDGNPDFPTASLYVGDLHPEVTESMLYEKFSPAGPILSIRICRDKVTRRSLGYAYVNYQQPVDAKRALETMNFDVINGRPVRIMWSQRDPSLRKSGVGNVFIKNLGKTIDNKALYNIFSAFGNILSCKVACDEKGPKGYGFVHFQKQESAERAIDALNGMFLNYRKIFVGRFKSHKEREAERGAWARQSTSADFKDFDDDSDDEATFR
Oligonucleotide,7-mer Z-score
AAACUAG,0.655
GAAGGAC,0.153
GGUGCGG,0.202
CAGGACC,0.16
AGAGACC,0.104
AUCUAUU,-0.211
UGGUCGU,-0.487
UCCUGGU,-0.304

# For quick reference, copied from above (study 1):
target,remaining binding [%]
"CHUK (Homo sapiens, UniProt O15111)",100
"MYLK4 (Homo sapiens, UniProt Q86YV6)",100
"EPHB1 (Homo sapiens, UniProt P54762)",89
